Experimental data of several laboratories.
Each numbered part is a random draw from the data of one study; scales do not carry over between parts. Substitutions count along the parent as printed.

Sample 1
Target: CCNB3, cyclin fold, Cln2 fusion (human)
Method: yeast growth competition, sequencing
Matrix: yeast
Setting: weak parent motif
Reference: not given
Reading: higher = stronger binding
Starting sequence: PKN2 docking peptide (human); VSAVQKLDFSDTM; partner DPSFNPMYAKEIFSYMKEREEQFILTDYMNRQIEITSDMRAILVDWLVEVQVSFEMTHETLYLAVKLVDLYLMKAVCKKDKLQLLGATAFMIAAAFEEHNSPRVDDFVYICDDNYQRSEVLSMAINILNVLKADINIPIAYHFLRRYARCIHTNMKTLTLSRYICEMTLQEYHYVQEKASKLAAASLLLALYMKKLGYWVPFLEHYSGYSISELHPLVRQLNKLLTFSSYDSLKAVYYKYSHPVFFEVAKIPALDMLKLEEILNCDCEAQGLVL
Variant | normalised enrichment score
VSAVQKLQFSDTM [D8Q] | 0.267
VLAVQKLDFSDTM [S2L] | 0.559
VSAVQKLDFVDTM [S10V] | 0.521
VSAVQKLDGSDTM [F9G] | 0.0751
VSAAQKLDFSDTM [V4A] | -0.0584

Sample 2
Target: RING finger protein unkempt homolog, zinc fingers 1-6, GST-SBP tag (UNK, Homo sapiens, UniProt Q9C0B0, residues 30-357)
Chain of UniProt Q9C0B0 (30-357, looked up): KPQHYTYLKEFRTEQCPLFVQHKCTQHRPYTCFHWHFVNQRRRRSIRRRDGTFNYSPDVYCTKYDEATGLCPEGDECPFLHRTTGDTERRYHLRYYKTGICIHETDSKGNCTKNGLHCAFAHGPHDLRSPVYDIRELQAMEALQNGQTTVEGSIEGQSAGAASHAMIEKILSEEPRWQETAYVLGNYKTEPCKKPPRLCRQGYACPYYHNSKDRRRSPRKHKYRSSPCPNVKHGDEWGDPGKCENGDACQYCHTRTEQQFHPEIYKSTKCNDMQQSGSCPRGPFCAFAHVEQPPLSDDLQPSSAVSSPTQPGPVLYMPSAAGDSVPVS
Method: RNA Bind-n-Seq
Molecule type: RNA
Matrix: in vitro
Concentration: not given
Setting: RNA with constant flanks, human and mouse sites, ends assumed
Reference: input RNA pool
Reading: higher = stronger binding
Strand | bound/input enrichment [ratio]
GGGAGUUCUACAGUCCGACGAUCGGCGGUGGGCGGGGCUCACGCGAGGCGCUGGAACGGUCCGGGAGAUUCUCGCUCUGCUGCUUUAGCUUCGGAGUGUUUGGCGAUGGGGCAGCGCGAGAUGUGGAGGCUCAUGUCGAGGUUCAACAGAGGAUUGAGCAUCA | 0.217
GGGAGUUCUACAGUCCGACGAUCCACGGGGGACACGGAUGGCUAGUGGGGCGCAGGGGCCUUUUGGGUUGAGACCGCGACGGUCGCGGCCACUGUUGAGGCGGAGACUUCGGAUCGCUGCCGCCUCCACCACCCCCAGUGUCCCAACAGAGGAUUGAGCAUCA | 0.254
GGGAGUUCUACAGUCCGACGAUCAAUGGUUUGCCCAGUCCUGACCACAUACUGUCCUUUCUGAUGGGACAAGAUCCAAUAUGAAUGUAAGUGAUGGAGGAAGACGACGCUUUGAGGAUAAUGAACACACAUUGCGAAUAUAUCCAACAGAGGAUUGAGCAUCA | 0.11
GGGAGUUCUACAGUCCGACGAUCAGUAUUAAAAAAAUCAUACAUGUGCUGGAGAAGGUCCAGUAUCUUGAACAAGAAGUAGAAGAAUUUGUAGGAAAAAAGACAGACAAAGCAUACUGGCUUCUGGAAGAAAUGCUAACCAAGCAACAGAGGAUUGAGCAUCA | 1.71
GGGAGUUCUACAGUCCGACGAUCUCUUAAUCAUAGUCUACCAUCAAAUACUUUAGGAGUAUCCUUAAUGUUUAGAUAGAAUAUUAGCAGCAUGCAAUAAUUACAUCCUAAGUUCUCAAGCAGAGGCAGUCUAUUGCAAGGACCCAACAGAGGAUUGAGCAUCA | 26.5

Sample 3
Target: Ras GTPase-activating protein-binding protein 1, C-terminal RGG region (G3BP1, Homo sapiens, UniProt Q13283)
Chain of UniProt Q13283 (whole entry, looked up): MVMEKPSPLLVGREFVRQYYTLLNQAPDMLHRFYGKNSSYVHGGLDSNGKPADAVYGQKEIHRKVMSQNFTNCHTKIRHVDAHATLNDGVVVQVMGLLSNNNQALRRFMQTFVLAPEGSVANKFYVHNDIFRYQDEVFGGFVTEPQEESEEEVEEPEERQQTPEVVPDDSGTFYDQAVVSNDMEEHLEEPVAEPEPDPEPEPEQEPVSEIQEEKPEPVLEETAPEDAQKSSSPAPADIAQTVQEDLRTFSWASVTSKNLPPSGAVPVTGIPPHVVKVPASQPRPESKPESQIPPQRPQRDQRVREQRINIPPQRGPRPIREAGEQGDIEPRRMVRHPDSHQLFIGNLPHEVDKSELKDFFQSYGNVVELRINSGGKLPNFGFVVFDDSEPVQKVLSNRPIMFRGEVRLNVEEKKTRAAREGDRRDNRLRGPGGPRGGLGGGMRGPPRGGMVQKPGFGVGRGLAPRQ
Method: RNA Bind-n-Seq
Molecule type: RNA
Matrix: in vitro
Concentration: 1 µM
Setting: whole 134-nt RNA, ends assumed
Together with: 150 mM KCl
Reference: input library
Reading: higher = stronger binding
Strand | log2 enrichment
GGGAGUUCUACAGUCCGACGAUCAGUCCUGUGCUACACAUCGUAUGUACCGAAUCGGAAAAAGGAAAAAAAGGAAAAAGGAAAGUAUUAUGUUACGCCGUUCGGAUCUGCACUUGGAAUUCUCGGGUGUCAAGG | -2.07
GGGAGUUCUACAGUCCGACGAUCAAGUCCUGUGCUACACAUCGUAUGUACCGAAUCGGGAGGGUUUGGGAAAAAAAGGGAAAGUAUUAUGUUACGCCGUUCGGAUCUGCACUUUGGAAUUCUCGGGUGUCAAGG | -0.0815
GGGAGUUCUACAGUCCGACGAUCCACAGACAACACGCACCCACACAGACACAGAGGGAUGGGGUUGGGAUGGGGACAGGGUGCACAGCAGGGCGGGGUAGGACCCCAGCCCCUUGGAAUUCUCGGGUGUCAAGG | -0.0483
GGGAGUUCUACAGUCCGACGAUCGCUCGCCCGAGCUCAGAGGUGAUCAAAGACGCCAACUUGUACAUCAGCGGGCUCCCGCGGACCAUGACCCAGAAGGACGUAGAAGACAUGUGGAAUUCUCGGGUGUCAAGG | -1.3
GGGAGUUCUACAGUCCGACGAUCUGUGCGGGAGACAGGCGCCAACGGCACCUCUUUCAGUGUCCGCAAGACAGCCUACUGCGACAUCCACACGCCUCCAGGUUCAGCACGCCGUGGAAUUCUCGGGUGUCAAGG | -0.117

Single results of other studies
Molecule | target | assay | test system | conditions | how to read | endpoint | result
PhoQ, residues 284 288 289 292 302 303 TNASYF | PhoP, residues 12 14 15 18 19 NQAHL (Escherichia coli, UniProt P23836) | Sort-seq, item: YFP reporter | E. coli | PhoQ-PhoP variant library, together with: 10 µM Mg2+ | reference: high Mg2+ state, higher = stronger signaling | fold induction | 1.44

Repeated from above (sample 3):
Strand | log2 enrichment
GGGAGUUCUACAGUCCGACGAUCUGUGCGGGAGACAGGCGCCAACGGCACCUCUUUCAGUGUCCGCAAGACAGCCUACUGCGACAUCCACACGCCUCCAGGUUCAGCACGCCGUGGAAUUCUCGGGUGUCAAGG | -0.117
